# Experimental data of several laboratories.
# A part holds a random share of what one study measured.
# Sequence of UniProt P07949 (whole entry, unmodified, looked up): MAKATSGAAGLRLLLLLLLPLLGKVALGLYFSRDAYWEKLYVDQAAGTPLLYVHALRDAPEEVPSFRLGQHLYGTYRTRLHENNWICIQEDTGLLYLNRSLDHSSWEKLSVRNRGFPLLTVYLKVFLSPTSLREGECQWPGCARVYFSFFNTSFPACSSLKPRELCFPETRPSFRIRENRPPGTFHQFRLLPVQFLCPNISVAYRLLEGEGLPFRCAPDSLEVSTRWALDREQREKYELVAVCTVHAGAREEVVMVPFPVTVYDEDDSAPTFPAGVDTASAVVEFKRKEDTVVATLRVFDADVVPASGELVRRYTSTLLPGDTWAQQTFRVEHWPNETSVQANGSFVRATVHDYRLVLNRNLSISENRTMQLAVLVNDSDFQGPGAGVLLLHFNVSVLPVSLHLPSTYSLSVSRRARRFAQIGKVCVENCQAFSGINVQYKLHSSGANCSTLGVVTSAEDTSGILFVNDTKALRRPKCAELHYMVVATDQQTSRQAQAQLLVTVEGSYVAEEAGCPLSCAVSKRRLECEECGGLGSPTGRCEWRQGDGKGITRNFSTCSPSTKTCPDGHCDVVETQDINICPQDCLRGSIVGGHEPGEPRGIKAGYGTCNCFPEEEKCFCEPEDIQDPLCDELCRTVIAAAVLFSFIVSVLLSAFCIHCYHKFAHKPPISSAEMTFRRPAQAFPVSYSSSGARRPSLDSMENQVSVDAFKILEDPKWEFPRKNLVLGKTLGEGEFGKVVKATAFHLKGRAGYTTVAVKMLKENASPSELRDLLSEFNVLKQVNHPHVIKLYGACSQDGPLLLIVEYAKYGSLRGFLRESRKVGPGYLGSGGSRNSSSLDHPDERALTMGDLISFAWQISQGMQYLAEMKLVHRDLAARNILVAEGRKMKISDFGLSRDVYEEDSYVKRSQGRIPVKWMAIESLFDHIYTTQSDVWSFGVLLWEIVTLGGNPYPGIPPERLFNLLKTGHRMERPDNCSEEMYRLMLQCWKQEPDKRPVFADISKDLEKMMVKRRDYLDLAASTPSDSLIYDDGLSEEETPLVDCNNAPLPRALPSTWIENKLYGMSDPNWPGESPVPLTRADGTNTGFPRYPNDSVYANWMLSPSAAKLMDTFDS
# Sequence of UniProt P42336 (whole entry, unmodified, looked up): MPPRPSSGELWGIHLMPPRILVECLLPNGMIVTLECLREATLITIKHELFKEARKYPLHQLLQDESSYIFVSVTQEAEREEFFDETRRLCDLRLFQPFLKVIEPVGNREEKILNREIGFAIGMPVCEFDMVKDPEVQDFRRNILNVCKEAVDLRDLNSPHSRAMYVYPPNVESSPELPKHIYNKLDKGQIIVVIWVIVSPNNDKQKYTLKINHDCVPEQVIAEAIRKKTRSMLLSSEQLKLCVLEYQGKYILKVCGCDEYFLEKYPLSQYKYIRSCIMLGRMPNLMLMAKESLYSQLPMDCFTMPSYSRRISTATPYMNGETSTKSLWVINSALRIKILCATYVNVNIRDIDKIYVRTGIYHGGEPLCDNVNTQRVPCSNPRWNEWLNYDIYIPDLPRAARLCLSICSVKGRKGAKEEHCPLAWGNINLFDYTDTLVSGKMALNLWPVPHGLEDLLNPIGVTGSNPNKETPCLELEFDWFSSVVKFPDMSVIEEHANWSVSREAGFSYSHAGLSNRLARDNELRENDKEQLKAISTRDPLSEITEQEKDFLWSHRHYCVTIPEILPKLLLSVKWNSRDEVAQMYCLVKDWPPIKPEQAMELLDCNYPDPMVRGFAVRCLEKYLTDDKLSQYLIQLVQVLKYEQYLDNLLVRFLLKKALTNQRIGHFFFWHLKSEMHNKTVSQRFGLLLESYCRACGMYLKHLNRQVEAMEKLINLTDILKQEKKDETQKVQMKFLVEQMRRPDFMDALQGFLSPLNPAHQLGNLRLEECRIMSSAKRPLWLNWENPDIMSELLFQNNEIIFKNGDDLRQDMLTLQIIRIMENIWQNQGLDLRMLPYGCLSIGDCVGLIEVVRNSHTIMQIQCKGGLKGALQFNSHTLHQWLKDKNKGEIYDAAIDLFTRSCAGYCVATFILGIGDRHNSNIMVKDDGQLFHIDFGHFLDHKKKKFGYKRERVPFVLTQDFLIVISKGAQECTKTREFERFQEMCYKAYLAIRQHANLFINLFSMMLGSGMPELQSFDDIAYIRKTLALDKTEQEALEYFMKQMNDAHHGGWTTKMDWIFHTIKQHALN
# Sequence of UniProt Q96PY6 (whole entry, looked up): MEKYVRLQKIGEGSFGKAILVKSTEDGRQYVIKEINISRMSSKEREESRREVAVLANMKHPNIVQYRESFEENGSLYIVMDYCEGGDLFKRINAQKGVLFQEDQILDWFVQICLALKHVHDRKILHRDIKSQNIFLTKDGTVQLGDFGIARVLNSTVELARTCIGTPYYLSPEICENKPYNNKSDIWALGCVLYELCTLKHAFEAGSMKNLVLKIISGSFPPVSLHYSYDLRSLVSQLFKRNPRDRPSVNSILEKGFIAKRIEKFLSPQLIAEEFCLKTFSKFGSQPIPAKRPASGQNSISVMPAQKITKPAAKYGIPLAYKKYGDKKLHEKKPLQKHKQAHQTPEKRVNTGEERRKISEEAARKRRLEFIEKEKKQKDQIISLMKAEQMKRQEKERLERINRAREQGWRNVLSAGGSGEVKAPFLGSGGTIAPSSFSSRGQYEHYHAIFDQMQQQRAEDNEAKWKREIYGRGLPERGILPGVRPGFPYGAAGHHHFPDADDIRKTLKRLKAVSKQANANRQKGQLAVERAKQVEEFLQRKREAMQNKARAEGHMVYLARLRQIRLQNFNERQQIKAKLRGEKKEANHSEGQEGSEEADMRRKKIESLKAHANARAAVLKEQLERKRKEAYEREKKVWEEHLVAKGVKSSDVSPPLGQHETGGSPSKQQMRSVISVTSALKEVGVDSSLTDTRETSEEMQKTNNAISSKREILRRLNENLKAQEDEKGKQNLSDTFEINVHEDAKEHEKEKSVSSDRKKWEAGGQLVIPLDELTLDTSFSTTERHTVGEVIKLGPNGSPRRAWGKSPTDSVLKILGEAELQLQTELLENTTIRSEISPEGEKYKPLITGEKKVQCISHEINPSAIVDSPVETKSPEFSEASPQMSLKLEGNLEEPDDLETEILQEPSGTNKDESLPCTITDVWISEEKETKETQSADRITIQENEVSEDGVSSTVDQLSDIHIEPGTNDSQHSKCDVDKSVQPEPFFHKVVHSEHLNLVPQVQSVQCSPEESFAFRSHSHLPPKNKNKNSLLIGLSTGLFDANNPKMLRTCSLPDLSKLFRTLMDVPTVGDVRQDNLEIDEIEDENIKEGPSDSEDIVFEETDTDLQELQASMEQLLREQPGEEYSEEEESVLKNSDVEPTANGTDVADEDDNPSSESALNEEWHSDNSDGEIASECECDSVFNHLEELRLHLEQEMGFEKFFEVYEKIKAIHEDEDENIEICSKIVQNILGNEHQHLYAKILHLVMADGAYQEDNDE
# Sequence of UniProt P53778 (whole entry, looked up): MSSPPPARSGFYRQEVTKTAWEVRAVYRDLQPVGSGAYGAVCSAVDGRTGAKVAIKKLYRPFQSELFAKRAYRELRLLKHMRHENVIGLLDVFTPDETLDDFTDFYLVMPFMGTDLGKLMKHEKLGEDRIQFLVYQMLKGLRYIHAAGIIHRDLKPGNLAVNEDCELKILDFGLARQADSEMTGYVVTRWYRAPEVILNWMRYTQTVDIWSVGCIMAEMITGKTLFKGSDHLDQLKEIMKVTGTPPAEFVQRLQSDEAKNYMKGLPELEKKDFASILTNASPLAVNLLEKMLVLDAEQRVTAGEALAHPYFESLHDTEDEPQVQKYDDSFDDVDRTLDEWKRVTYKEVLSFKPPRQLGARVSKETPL
# Sequence of UniProt P41240 (whole entry, looked up): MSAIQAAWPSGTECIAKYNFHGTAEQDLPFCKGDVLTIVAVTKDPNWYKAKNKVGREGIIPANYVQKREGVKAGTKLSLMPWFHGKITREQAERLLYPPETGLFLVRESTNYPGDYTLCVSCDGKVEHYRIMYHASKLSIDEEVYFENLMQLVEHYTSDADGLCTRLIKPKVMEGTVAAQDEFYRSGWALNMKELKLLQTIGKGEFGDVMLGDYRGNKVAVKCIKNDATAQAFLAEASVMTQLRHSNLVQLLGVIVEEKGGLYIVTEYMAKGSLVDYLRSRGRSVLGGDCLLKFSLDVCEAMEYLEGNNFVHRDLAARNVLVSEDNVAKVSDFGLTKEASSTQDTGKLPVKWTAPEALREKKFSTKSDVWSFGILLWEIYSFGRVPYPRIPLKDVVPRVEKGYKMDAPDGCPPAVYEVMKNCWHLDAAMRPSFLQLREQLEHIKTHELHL

# Block 1 — effect on: cell-free assay; technique: competition with immobilised ligand; concentration: 1 µM
# Structure (SMILES): Cc1nc(C2CCN(C(=O)c3ccc(OC(F)(F)F)cc3N)CC2)c2ncc(N3CCN(C)CC3)cc2n1
target,remaining binding [%]
"Tyrosine-protein kinase ABL1, phosphorylated (ABL1, Homo sapiens, UniProt P00519, T315I)",100
"Microtubule-associated serine/threonine-protein kinase 1 (MAST1, Homo sapiens, UniProt Q9Y2H9)",100
"Mitogen-activated protein kinase 12 (MAPK12, Homo sapiens, UniProt P53778)",100
"Mitogen-activated protein kinase 15 (MAPK15, Homo sapiens, UniProt Q8TD08)",100
"Serine/threonine-protein kinase PAK 6 (PAK6, Homo sapiens, UniProt Q9NQU5)",93
"G protein-coupled receptor kinase 4 (GRK4, Homo sapiens, UniProt P32298)",96
"Serine/threonine-protein kinase D1 (PRKD1, Homo sapiens, UniProt Q15139)",79
"Receptor tyrosine-protein kinase erbB-2 (ERBB2, Homo sapiens, UniProt P04626)",100
"Activin receptor type-1 (ACVR1, Homo sapiens, UniProt Q04771)",100
"Phosphatidylinositol 4,5-bisphosphate 3-kinase catalytic subunit alpha isoform (PIK3CA, Homo sapiens, UniProt P42336)",81
"Proto-oncogene tyrosine-protein kinase receptor Ret (RET, Homo sapiens, UniProt P07949, V804L)",73
"Dual specificity protein kinase CLK3 (CLK3, Homo sapiens, UniProt P49761)",94
"Proto-oncogene tyrosine-protein kinase receptor Ret (RET, Homo sapiens, UniProt P07949)",100
"Tyrosine-protein kinase ABL1, phosphorylated (ABL1, Homo sapiens, UniProt P00519, F317L)",97
"Protein kinase C eta type (PRKCH, Homo sapiens, UniProt P24723)",88
"Serine/threonine-protein kinase D2 (PRKD2, Homo sapiens, UniProt Q9BZL6)",92
"Tyrosine-protein kinase CSK (CSK, Homo sapiens, UniProt P41240)",100
"Dual specificity mitogen-activated protein kinase kinase 3 (MAP2K3, Homo sapiens, UniProt P46734)",98
"Serine/threonine-protein kinase Nek1 (NEK1, Homo sapiens, UniProt Q96PY6)",97
"Serine/threonine-protein kinase mTOR (MTOR, Homo sapiens, UniProt P42345)",78
"Phosphatidylinositol 4,5-bisphosphate 3-kinase catalytic subunit alpha isoform (PIK3CA, Homo sapiens, UniProt P42336, C420R)",86
"Serine/threonine-protein kinase pim-2 (PIM2, Homo sapiens, UniProt Q9P1W9)",100
"3-phosphoinositide-dependent protein kinase 1 (PDPK1, Homo sapiens, UniProt O15530)",93
"Ribosomal protein S6 kinase alpha-1, N-terminal kinase domain (RPS6KA1, Homo sapiens, UniProt Q15418)",100
"NUAK family SNF1-like kinase 2 (NUAK2, Homo sapiens, UniProt Q9H093)",81

# Block 2 — effect on: enzyme activity; mode: inhibitor; concentration: 0.5 µM; relative to: control
# Target: Protein kinase C alpha type (PRKCA, Homo sapiens, UniProt P17252)
Compound,remaining activity [%]
Cc1cc(Nc2nc(-c3ccccc3)nc3ccccc23)n[nH]1,92.2
Nc1nccc(-c2c(-c3ccc(F)cc3)ncn2C2CCNCC2)n1,89.1
COc1cc(Nc2c(C#N)cnc3cc(OCCCN4CCN(C)CC4)c(OC)cc23)c(Cl)cc1Cl,49.5
Cc1ccc(NC2=CC(=O)c3sc(C)nc3C2=O)cc1,100
CSc1nc(-c2ccnc(N[C@@H](C)c3ccccc3)c2)c(-c2ccc(F)cc2)[nH]1 (racemic),108
N#CC(=C(N)Sc1ccc(N)cc1)c1ccccc1C(F)(F)F,100
O=S(=O)(NCCNC/C=C/c1ccc(Br)cc1)c1cccc2cnccc12,85.7
Fc1ccc(-c2nc3n(c2-c2ccncc2)CCS3)cc1,113
Oc1ccc(Nc2nc(-c3ccc(Cl)cc3)cs2)cc1,113
Cc1cncc2cccc(S(=O)(=O)N3CCCN(C(=O)CN)C[C@@H]3C)c12,109
CC(C)(C)n1nc(Cc2cccc3ccccc23)c2c(N)ncnc21,102

# Block 3 — cell line: HaCaT; concentration: 100 µM; time: 36 h
SMILES,viability
Nc1nccs1,90.3%
O[C@H]1[C@H](O)[C@@H](O)[C@H](O)[C@@H](O)[C@H]1O,82.4%
Cn1c(=O)c2c(ncn2CC(=O)O)n(C)c1=O,94.3%
CC(C)C[C@H](NC(=O)[C@H](Cc1ccccc1)NC(=O)c1cnccn1)B(O)O,5.95%
CN1C2=CC(=O)/C(=N\NC(N)=O)C=C2CC1S(=O)(=O)O (stereo not shown),87.2%
COc1ccc(CN(CCN(C)C)c2ccccn2)cc1,94.4%
CN(C)CCc1c[nH]c2ccc(CS(=O)(=O)N3CCCC3)cc12,57.4%
O=c1oc2ccccc2c(O)c1Cc1c(O)c2ccccc2oc1=O,35.5%

# Block 4 — mode: inhibitor; concentration: 10 µM; relative to: control
# Target: Diamine acetyltransferase 1 (Homo sapiens, UniProt P21673)
# Construct (P21673 1-171): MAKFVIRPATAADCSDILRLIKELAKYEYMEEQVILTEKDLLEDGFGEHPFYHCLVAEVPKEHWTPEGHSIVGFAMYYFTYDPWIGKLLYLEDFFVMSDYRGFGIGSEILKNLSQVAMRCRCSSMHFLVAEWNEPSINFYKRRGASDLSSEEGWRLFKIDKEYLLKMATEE
Compound,remaining activity
COC(=O)c1ccccc1O,89.3%
OC[C@H]1O[C@H](O[C@H]2O[C@H](CO)[C@@H](O)[C@H](O)[C@H]2O)[C@H](O)[C@@H](O)[C@@H]1O,71.1%
Cc1ncc(CO)c(CO)c1O,101%
NC(=O)c1ccccc1,92.2%
O=C(O)c1cc(O)cc(O)c1,80.5%
COc1cc(O)c2c(=O)cc(-c3ccc(O)cc3)oc2c1,96.7%
OC[C@@H](O)[C@@H](O)[C@H](O)[C@@H](O)CO,90.9%
C[C@@H]1CC[C@]2(C(=O)O)CC[C@]3(C)C(=CC[C@@H]4[C@@]5(C)CC[C@H](O)C(C)(C)[C@@H]5CC[C@]43C)[C@@H]2[C@]1(C)O,99.4%
O=C1C[C@@H](c2ccc(O[C@@H]3O[C@H](CO)[C@@H](O)[C@H](O)[C@H]3O)cc2)Oc2cc(O)ccc21,118%
CCCCCCCC/C=C\CCCCCCCC(=O)OC,97.2%
COc1ccc(-c2cc(=O)c3c(O)c(OC)c(OC)cc3o2)cc1OC,91.7%
